# Measured values of several laboratories.
# Every numbered part comes from another study and shows a few of its results, in no order. Positions count from the first letter of the parent shown.

# Sample 1
# Target: RING finger protein unkempt homolog, zinc fingers 1-6, GST-SBP tag (UNK, Homo sapiens, UniProt Q9C0B0, residues 30-357)
# Technique: RNA Bind-n-Seq
# Molecule type: RNA
# Matrix: in vitro
# Concentration: not given
# Setting: RNA with constant flanks, human and mouse sites, ends assumed
# Reference: input RNA pool
# Direction: higher = stronger binding
# Shared flanks, not repeated: GGGAGUUCUACAGUCCGACGAUC … CAACAGAGGAUUGAGCAUCA
# Target sequence (chain): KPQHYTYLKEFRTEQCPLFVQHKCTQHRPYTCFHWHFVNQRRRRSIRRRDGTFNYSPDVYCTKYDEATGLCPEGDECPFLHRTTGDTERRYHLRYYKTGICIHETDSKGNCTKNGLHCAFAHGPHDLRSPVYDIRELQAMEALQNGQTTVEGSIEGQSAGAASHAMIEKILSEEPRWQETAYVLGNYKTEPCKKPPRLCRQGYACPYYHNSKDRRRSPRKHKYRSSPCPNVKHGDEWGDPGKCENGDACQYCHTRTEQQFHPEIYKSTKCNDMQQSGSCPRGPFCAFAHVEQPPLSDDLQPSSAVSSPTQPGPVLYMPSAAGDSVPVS
Sequence,bound/input enrichment [ratio]
AUUACUUCCAUUCCUGAACUUGCUGACUACAUUAAAGUUUUCAAGCCAAAAAAGCUGACUCUGAAAGGUUACAAACAAUAUUGGUGCACCUUCAAAGACACAUCCAUUUCUUGUUAUAAG,0.0985
CUCAAGCUACCAAAAAGGAAGUGGCAAUAGAUUGACUCAGGAUGUCAGAGCUCGGGAUUUUAGCAUUACUGCGUAAAGACUUUUGAAGGGACAGAAGUGAAGAAAUAAGCUGCAAUUUUG,0.332
CAGGUUUCUGGCCUUGCAGCCAAUCGUUCUCUGACAGAAGGCCUGGUCCUGGACACAAUGAAUGACAGCCUCAGCAAGAUCCUGCUGGACAUCAGCUUUCCUGGCCUGGACGAGGACCCA,0.0636
AUGGUGCAAAAUGUGAGCUUCAAGUAUACAAAAGAUGGGCCUUGCAUCUACAAUAAUCUAGAAUUUGGAAUUGACCUUGACACACGAGUGGCUCUGGUAGGGCCCAAUGGAGCAGGGAAG,3.14
AGCGCGGAUGCGCGGCGUGGCCACGCCCCUUCAGUGCUUGUGACGCAGGCGCCCUGGGCUUUUUGGGCGCGAAAAAGAAGCAGUCCUGGGUUGUACCCGGCGCAGCUGGGAGCGGCUGCU,0.129
GUAUUUGUCCCAUUUUUGUUUUUAAAUGUAUUUUUAUAAGAUGUAUACAUGUGUAUUUGUAAUAGAUUUUUUGAUUAUAUAAUACUGAAACAUCUCUCAAUAUUAUGAAAAAUGUUAAAA,0.878
GCUGUGUUGCUAACUCUUUCGCUCAUGUUAGUUUGGUUAUGUGGAUCUGUUGUCUAAGAGCCCUCACUUUUUUCUUUUUCUUUUUUUUUUCUUUUUUUUGGUUCUUUCUGACUGCUUUGU,2.03
UUGAUCAGGGAAGACUUAGGGUUCAGAUUUAUAUCUGAGCAGGUCAGUCACCACCCUCCUAUUAGCGCAUUUUAUUCAGAAGGUCUCAAUCAAGACUUCAGGUUCCACGGUUCCAUCUAC,38.4
CCUGAAGAAAACCCUGGGUCACCUUCUAGAGAAUCACCUCUUUCAGCACCUUCAGAUCAUUCUUAGAUCCAAGGUGUAAUACCUUUUCAGUGUAUCAUGGGUGGUCUUGUUCAUCCCCUU,0.135
ACUGAAAUACUAGUAAAUUACUUGAGUUUUUCACGAUGACUUCAGAGGAGGGGUCAUCACUAGGUGCUUUGUCCUUUUUGUACUAUGAUUCACCCAUCUCUUGGAUUGGAUGUAGCAAUA,0.721
CUGUGAGCGUCUACAGACAGCUCACCAUUUUUGUCCUGUAUCUGUAAACACUUUUUGUUCUUAGUCUUUUUCUUGUAAAAUUGAUGUUCUUUAAAAUCGUUAAUGUAUAACAGGGCUUAU,11.2

# Sample 2
# Target: RNA binding protein fox-1 homolog 2, RRM domain, GST-SBP tag (RBFOX2, Homo sapiens, UniProt O43251-10, residues 100-194)
# Technique: RNA Bind-n-Seq
# Molecule type: RNA
# Matrix: in vitro
# Concentration: 365 nM
# Setting: natural RNA segment, single round, ends assumed
# Reference: no-protein control
# Direction: higher = stronger binding
# Shared flanks, not repeated: GGGAGUUCUACAGUCCGACGAUC … UGGAAUUCUCGGGUGCCAA
# Residues (chain): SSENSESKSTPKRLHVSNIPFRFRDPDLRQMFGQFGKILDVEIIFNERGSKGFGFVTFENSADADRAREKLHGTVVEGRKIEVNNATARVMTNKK
Sequence,RBNS enrichment (R)
UUGUGAAAUAGCUUCUGUUGGAAACCUUUUGAGGGGAAUAAGGAAUGGUCAUCUAAAAUGAGAGAUUCUGGAUUUUAAUGCAGUUCAAAGUUGAGCUGUAUUUUUGUUGU,0.63
GGCGGCUCUUUCUACAGCUGAACUCCUCCUCAGUUGAGUUUUCAGUUUCUGGCUUGCUUCUCCCUUUGUAUAGGGGAGAACAGAGAAGAGGUUUAUGCUGAGGGGGGGUG,7.39
GAGGUCCGCCGCCAUCCACACCCAGCCAAGACACCUCAGAGGCCAUAGGGACAACCUCCUUGCUGGCCAACACCUGCUGGAGCAGGGGCACAGGUCCCAGCAACUGAUCC,0.28
UUCUCUAAUUUCUCUGUUCAGAGCCCCAGCAGACCUUAUUACUGGGGUAAGGCAAGUCUGUUGACUGGUGUCCCUCACCUCGCUUCCCUAAUCUACAUUCAGGAGACCGA,0.306
UGGAUCUGAAAGCAACAAUCGCCAGCCCCUACUGUCGUACCAGUAGAAACCUCAUCUUGGGUACAAGGAAGGAUAGUUCUGUCACUUUAACUUGUUUCAAUGCCUACUUU,0.598
AAAAGAGUGCCUAAGCGGGGGUGAAAGAGGACGUGUUACCCACUGCCAUGCACCAGGACUGGCUGUGUAACCUUGGGUGGCCCCUGCUGUCUCUCUGGGCUGCAGAGUCU,0.572
AACCCCAGCCUGAUAUAGUCUUGCUUCCGUUGCCCACUGCCUAUGAGCUAGACAGCACCAAACUGAAGAGCCCACUAAUUACUUCCCCCAUGUUCCGUAAUGUGCCCACA,0.495
AGCCAAGAGAAUCAGAGAAAGAUGCUGCAUUUUAUAUCAAAGCCCAAACUCCUUUCUUAUCUUGACCAUACUAAUAAAUAUAAUUUAUAAGCAUUGCCAUUGAAGGCUUA,0.499
GAGAGGAUUUCCUGAGACUGGUUUGGAUCUCCCUGCAUGACAGUCCCCCAGAAACUUAGUGAGUCCUGGACUGGACUGAACAUCCAGAAAGCUUCCCUGCAAUCUUGGGG,5.11
UAAAUAUUUCAGAUGCCUCACAGUAAGUUCACUCCUUUCCAUACUGAGGAAACAAGAAAAGAAGAAGAGGCACAUGAAGUGUGCUUUUGGGAAUAGAAUUUAAAAUUGGA,0.507
AAAGGGAACACACCCAAUUUUAUGUUAAGGUGAAACCAGCAGUUUGCUUCUUUUAUUAGUAAUGUGGAUUGAUGUUUUCUCAGAGUAACUCGUUGUCUUUUCGCUUGAAA,0.27
UGAGUCACAUAAGGAAACCACCUUUGACCUCUCUGACACUUUUGUCUUUAAGCCACGUCUCUGAAAUCUUGUGAGGGGUGAAGAAAGAGGACUGGAGAUGAAUGGACAAU,0.339

# Sample 3
# Target: Interferon regulatory factor 7, full length, phosphomimetic (IRF7, Homo sapiens, UniProt Q92985, residues 1-503, S471D/S472D/S475D/S476D/S477D/S483D/S484D/S487D)
# Technique: protein-binding microarray
# Molecule type: double-stranded DNA, one strand shown
# Matrix: in vitro
# Concentration: 2200 nM top
# Setting: 60-bp whole probe
# Added: salmon DNA 0.4 mg/ml
# Reference: random background probes
# Direction: higher = stronger binding
# Shared flanks, not repeated: GCCTAGCAC … GTCTTGATTCGCTTGACGCTGCTG
# Construct (chain): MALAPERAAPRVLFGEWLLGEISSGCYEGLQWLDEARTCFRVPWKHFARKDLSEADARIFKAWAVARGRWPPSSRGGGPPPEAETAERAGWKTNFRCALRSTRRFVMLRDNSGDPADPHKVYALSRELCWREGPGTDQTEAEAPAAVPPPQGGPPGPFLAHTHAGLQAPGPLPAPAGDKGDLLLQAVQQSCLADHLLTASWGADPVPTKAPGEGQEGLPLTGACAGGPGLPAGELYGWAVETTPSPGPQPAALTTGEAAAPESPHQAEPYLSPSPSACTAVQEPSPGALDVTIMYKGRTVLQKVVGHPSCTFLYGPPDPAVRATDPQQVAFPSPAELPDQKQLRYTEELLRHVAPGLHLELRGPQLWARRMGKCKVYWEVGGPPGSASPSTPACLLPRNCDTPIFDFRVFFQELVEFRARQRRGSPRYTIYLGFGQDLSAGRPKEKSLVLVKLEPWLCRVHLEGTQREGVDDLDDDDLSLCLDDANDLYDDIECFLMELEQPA
Sequence,fitted relative affinity
TTAGGTTCCGGTTTCGGGTAGTGCTAG,6.84 z-score
GTCTGTTTCCTCTTTCTTTGGTGCTAG,3.65 z-score
TCAAAAATGCCCTTTTGGACTGTGCTA,-0.17 z-score
GACGGACTGGGGTTTCGGGCCGTGCTA,-0.16 z-score
AACGATCTCAGTCTCGAGACGTGCTAG,0.383 z-score
CACGATTTCAGTATCGAGACGTGCTAG,1.31 z-score
GACCGTATCGACACTGGGGACGTGCTA,0.255 z-score
TCATGTTTTTTTCTACTACTGTGCTAG,1.87 z-score
TAGCTTCCATTTTCTGAACGTGTGCTA,2.97 z-score
TCAAAAATGATTGGTTGACTGTGCTAG,-0.33 z-score
TTAGGTTTCGGTGTCGGTTAGTGCTAG,4.22 z-score
ACAAAGATTTTTATCAAATGGTGCTAG,-0.644 z-score
TTAGGTTTCGGGACTGGGATAGTGCTA,3.15 z-score
GACGAACTGAGTATCGAGAGGTGCTAG,-0.327 z-score
TGGGATTTTGTCCTCCCCTCGTGCTAG,0.208 z-score
TTTTTTTTCTTTAAAAGTGAGTGCTAG,1.29 z-score
GACGGTTTCCTTAACCTGACGTGCTAG,1.52 z-score

# Sample 4
# Target: CREBL2, bZIP domain (human)
# Technique: DHFR protein complementation
# Matrix: yeast
# Setting: single substitutions, most at no-binding floor
# Reference: wild-type JUN-FOS pair
# Direction: higher = stronger binding
# Parent: JUN, bZIP domain (human); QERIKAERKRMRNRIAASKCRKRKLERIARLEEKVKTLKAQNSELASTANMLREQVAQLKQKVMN; partner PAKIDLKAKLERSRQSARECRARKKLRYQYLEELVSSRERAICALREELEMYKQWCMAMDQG
Variant,binding fitness
A46L,-1.37 natural log
R30M,-1.5 natural log
K34H,-1.55 natural log
E54G,-1.48 natural log
Q55P,-1.44 natural log
T48W,-1.5 natural log
L31A,-1.54 natural log
A49C,-1.56 natural log
L45I,-1.42 natural log
E54L,-1.62 natural log
N42C,-1.43 natural log
E54D,-1.46 natural log
L38Q,-1.53 natural log
L52H,-1.43 natural log
A49P,-1.49 natural log
L45K,-1.63 natural log
T37Y,-1.59 natural log
T37R,-1.5 natural log
A40C,-1.32 natural log
L31I,-1.45 natural log
L45A,-1.48 natural log

# Sample 5
# Target: Centromere-binding protein 1, full length, His-tagged (CBF1, Saccharomyces cerevisiae, UniProt P17106, residues 1-351)
# UniProt P17106, sequence (whole entry, looked up): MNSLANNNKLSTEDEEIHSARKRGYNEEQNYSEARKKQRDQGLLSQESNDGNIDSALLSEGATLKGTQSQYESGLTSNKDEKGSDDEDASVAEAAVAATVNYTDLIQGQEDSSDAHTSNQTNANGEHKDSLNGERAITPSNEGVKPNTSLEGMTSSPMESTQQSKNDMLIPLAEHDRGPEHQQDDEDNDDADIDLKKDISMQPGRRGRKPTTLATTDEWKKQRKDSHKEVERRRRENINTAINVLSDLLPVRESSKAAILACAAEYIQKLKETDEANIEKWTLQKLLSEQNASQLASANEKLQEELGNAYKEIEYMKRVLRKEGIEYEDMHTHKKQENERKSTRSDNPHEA
# Technique: competition protein-binding microarray
# Molecule type: double-stranded DNA, one strand shown
# Matrix: in vitro
# Concentration: 2 µM
# Setting: whole 60-bp probe, lowest competitor level
# Added: Pho4 competitor, 0.05 µM
# Direction: higher = stronger binding
# Shared flanks, not repeated: … GTCTTGATTCGCTTGACGCTGCTG
Sequence,fluorescence intensity [a.u.]
TGCCCTTCGCAAAGCACCGTGCTTTTAATGGCAATC,63.9
TCAAAGCCTTACTGGCACGCATCCTGATGGGGACGC,71.6
GTAGGAGCCCCTTAGGGCGTGCCAGTAGTTTAAAGC,70.8
TTGTAATGCTTTCGTCTCGTGCCAGGCCTGCGCTAA,135
CCATACCAAACAGCCCTCGTGGAGGAAAGAACGGTA,71.2
AGGTGCAGCCCCTGCCACGTGGGATGCGGTGTGCCC,416
TGGGCTCACCCGCGGGTCGTGATGGCGATTCAGCAA,67.8
TGCGCAACAACTTGCAGCGTGGGTGTATGTCTAGAA,62.7
ATGCCAAGTAAGGTTTTTCGGATTTAGGGTGGCGTC,61
TCCTTCTTACCTTGGCGCATGATGTTGTTTGTGATG,107
CTAACGAAGGTTTTTCACGTGGATTACAAGCCAAGT,541
AGGGCGAGGGTGATACTCGTGGGTATGTTTCAATGC,67.6
CGAATACGGGCGGCATTCGTGATGGCAATAGATTTA,74
CGGTACCCCAACCGTCACAATAAGTACTTGCGCCAT,60.3
AAATTACTAAGTTGTCACAGTACTTACCCCGTATGA,80.8
CCTTCTCCCTGCATACACATGATAACCATCTACACC,148
CGTCCTAGTGATTGTTCGGTGGGTGCCATGAGGAAG,68.9
AAATTATAATTCGCTCTCATGATAACCACATCTGTC,72.5
TATGTCCAATAGAGTCGCGTGCGATACAACTTCGTC,95.8
TAGAGGAAAGAAAGAAACGTGGGTAAAACAGGGGCC,97.2
TTTCGGCTTCACCTACACGTTTGATTAATCTTAAAG,81

# Excerpt of the above (sample 4):
Variant,binding fitness
A49P,-1.49 natural log
L45K,-1.63 natural log
T37Y,-1.59 natural log
T37R,-1.5 natural log
A40C,-1.32 natural log
L31I,-1.45 natural log
L45A,-1.48 natural log
